Experimental data pooled from the literature.
A part holds a random share of what one study measured.
UniProt Q96NX5, sequence (whole entry, looked up): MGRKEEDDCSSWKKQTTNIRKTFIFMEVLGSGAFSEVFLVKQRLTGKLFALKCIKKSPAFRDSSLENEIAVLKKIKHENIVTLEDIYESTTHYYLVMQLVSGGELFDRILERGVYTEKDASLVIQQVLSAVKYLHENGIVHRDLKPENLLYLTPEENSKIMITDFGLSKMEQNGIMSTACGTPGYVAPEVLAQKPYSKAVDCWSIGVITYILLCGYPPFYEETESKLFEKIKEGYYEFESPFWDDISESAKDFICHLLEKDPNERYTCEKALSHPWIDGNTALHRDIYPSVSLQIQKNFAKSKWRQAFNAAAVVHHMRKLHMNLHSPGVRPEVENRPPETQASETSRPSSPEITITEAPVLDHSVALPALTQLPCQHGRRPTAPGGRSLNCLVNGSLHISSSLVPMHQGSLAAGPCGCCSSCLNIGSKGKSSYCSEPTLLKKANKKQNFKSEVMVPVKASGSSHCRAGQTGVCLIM
UniProt P46734, sequence (whole entry, looked up): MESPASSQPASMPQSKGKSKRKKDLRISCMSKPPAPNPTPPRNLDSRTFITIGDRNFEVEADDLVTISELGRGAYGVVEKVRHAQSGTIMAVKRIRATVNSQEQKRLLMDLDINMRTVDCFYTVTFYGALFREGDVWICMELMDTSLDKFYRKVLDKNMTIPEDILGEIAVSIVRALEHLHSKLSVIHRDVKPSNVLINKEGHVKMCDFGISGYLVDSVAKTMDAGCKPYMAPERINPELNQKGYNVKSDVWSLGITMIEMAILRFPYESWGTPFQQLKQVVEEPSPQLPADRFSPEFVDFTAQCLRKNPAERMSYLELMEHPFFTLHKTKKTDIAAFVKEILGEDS
UniProt Q9BUB5, sequence (whole entry, looked up): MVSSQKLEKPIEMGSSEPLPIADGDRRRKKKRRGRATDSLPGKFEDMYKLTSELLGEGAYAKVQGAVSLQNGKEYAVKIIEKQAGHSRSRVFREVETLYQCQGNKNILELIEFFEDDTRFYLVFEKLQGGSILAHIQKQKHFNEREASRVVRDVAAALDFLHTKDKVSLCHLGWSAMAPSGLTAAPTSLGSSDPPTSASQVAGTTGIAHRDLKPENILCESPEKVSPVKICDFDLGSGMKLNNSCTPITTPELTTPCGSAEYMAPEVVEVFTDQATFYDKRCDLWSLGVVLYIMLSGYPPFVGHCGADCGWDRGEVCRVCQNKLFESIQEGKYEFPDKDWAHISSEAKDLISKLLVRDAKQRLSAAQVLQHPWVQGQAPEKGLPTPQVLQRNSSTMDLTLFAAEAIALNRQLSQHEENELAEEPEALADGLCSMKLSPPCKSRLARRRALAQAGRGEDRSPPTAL
UniProt O14578, sequence (whole entry, looked up): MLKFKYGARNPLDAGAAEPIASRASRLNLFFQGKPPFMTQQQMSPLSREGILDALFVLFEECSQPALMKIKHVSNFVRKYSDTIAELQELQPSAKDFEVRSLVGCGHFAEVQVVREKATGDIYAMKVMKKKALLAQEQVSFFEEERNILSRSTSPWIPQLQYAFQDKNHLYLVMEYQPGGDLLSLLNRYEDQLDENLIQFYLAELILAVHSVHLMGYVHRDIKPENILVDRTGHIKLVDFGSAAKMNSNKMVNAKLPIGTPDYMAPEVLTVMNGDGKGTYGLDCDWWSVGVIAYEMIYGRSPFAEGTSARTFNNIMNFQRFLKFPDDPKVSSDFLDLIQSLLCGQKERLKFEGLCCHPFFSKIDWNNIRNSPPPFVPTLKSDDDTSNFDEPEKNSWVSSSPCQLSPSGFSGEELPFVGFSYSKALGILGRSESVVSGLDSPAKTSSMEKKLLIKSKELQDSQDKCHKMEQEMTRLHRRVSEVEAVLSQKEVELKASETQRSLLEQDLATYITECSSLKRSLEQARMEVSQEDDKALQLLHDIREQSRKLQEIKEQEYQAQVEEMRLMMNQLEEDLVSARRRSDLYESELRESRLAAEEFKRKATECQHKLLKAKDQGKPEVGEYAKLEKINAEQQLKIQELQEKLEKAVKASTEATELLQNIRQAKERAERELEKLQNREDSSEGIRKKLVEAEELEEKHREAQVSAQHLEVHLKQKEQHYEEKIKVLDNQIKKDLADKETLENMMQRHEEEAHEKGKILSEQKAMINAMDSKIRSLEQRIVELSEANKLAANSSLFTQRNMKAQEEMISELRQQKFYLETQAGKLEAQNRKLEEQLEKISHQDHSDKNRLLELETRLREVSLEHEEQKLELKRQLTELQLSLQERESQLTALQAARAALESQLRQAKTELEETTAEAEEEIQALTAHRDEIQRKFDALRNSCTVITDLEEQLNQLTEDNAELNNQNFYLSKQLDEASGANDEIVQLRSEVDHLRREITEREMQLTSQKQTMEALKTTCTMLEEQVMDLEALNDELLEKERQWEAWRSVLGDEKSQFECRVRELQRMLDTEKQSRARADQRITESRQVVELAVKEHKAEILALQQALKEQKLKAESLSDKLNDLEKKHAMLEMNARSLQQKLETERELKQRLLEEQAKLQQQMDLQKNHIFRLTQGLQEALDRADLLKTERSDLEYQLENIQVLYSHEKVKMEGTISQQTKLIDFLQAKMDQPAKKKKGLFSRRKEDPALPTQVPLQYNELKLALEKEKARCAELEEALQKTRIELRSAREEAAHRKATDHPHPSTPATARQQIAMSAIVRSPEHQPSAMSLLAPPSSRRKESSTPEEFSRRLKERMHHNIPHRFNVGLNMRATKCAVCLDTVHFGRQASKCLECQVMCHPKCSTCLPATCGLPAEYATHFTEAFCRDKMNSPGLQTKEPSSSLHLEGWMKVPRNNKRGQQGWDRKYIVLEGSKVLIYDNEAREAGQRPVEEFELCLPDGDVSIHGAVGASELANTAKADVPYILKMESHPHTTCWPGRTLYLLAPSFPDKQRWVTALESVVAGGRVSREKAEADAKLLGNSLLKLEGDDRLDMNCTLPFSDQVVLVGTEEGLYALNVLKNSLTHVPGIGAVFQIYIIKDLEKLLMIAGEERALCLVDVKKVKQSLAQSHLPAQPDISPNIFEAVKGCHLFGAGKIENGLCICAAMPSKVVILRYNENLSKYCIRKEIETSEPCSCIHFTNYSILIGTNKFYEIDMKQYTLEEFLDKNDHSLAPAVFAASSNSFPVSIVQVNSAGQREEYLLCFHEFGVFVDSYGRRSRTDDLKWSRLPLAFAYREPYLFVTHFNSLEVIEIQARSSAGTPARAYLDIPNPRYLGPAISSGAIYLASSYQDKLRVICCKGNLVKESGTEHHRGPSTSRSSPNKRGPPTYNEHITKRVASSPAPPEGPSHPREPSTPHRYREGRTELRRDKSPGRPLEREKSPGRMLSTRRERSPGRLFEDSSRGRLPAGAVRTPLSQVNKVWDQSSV
UniProt P15735, sequence (whole entry, looked up): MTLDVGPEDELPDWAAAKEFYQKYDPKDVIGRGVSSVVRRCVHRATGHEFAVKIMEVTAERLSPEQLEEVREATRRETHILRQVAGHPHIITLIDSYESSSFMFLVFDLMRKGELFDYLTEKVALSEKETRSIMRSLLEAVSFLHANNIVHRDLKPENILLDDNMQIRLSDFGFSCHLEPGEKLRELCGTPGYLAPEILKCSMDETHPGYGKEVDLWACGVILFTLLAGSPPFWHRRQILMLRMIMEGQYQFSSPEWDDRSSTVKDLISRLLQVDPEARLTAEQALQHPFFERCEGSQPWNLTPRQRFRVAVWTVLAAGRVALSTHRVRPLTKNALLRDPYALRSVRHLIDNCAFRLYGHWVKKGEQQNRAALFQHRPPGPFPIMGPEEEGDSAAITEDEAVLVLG

Study 1 — tested at: 0.1 µM
SMILES: CS(=O)(=O)N1CCCC(NC(=O)[C@H](CCC2CCCCC2)NC(=O)c2ccc(CNc3ncnc4c3nnn4-c3ccccc3)cc2)C1 (stereo partly shown)
The remaining binding was 100% (PHKG2 (Homo sapiens, UniProt P15735); cell-free assay, competition with immobilised ligand).
The remaining binding was 100% (Tyrosine-protein kinase ABL1, non-phosphorylated (ABL1, Homo sapiens, UniProt P00519, T315I); cell-free assay, competition with immobilised ligand).
The remaining binding was 92% (CAMK1G (Homo sapiens, UniProt Q96NX5); cell-free assay, competition with immobilised ligand).
The remaining binding was 98% (CIT (Homo sapiens, UniProt O14578); cell-free assay, competition with immobilised ligand).
The remaining binding was 95% (Tyrosine-protein kinase ABL1, phosphorylated (ABL1, Homo sapiens, UniProt P00519, F317I); binding).
MAP2K3 (Homo sapiens, UniProt P46734); cell-free assay, competition with immobilised ligand — remaining binding: 85%.
The remaining binding was 86% (MKNK1 (Homo sapiens, UniProt Q9BUB5); cell-free assay, competition with immobilised ligand).

Study 2 — cell line: HaCaT; tested at: 100 µM; time: 36 h
For `C[C@]12CCC(=O)C=C1[C@@H]1C[C@@H]1[C@H]1[C@@H]3[C@@H]4C[C@@H]4[C@@]4(CCC(=O)O4)[C@@]3(C)CC[C@@H]12`, the viability was 52.2%.
The viability of `CC[C@@]1(O)C(=O)OCc2c1cc1n(c2=O)Cc2cc3c(CN(C)C)c(O)ccc3nc2-1` is reported as 107%.
`COc1c(C)c2c(c(O)c1C/C=C(\C)CCC(=O)OCCN1CCOCC1)C(=O)OC2` gave a viability of 49.4%.
`CC(C)NCC(O)COc1cccc2[nH]c3ccccc3c12` (stereo not shown) gave a viability of 6.29%.
For `O=C(O)c1cccc(-c2noc(-c3ccccc3F)n2)c1`, the viability was 95.1%.
`CC(=O)Oc1cc(C)c(OC(C)=O)c2ccccc12` gave a viability of 8.55%.
With `C[C@H]1CC[C@@]2(O)C(C)(C)[C@@H]3CC[C@@]2(C)[C@H]1C3` the viability was 33.2%.
`CC(=O)Oc1cccc2c1C(=O)c1c(OC(C)=O)cc(C(=O)O)cc1C2=O` gave a viability of 49.6%.

Study 3 — host: human; matrix: microsomes or S9; tested at: 2 µM; time: 0.5 h
The remaining compound of `COc1ccc2[nH]cc(CCn3c(N)cc(=O)[nH]c3=O)c2c1` is reported as 75.1%.
For `N#Cc1nc(N2CCCC2)nc(N(c2ccccc2)c2ccccc2)n1`, the remaining compound was 20.2%.
For `CC(O)CN(Cc1cc(F)cc(Br)c1)C(C)C` (stereo not shown), the remaining compound was 15.6%.
The remaining compound of `O=C(Nc1ccc2nc[nH]c(=O)c2c1)c1cc(-c2ccc(Br)s2)n[nH]1` is reported as 70.6%.
`CC(C)(C)OC(=O)Nc1cccc(C(=O)NCc2c(F)cccc2F)n1` has a remaining compound of greater than 99%.
For `O=C(O[C@@H]1Cc2c(O)cc(O)cc2O[C@@H]1c1ccc(O)c(O)c1)c1cc(O)c(O)c(O)c1`, the remaining compound was 59.6%.

Study 4 — effect on: enzyme activity; mode: inhibitor; tested at: 0.5 µM; baseline: control
Target: Dual specificity tyrosine-phosphorylation-regulated kinase 4 (DYRK4, Homo sapiens, UniProt Q9NR20)
Construct (Q9NR20 1-520): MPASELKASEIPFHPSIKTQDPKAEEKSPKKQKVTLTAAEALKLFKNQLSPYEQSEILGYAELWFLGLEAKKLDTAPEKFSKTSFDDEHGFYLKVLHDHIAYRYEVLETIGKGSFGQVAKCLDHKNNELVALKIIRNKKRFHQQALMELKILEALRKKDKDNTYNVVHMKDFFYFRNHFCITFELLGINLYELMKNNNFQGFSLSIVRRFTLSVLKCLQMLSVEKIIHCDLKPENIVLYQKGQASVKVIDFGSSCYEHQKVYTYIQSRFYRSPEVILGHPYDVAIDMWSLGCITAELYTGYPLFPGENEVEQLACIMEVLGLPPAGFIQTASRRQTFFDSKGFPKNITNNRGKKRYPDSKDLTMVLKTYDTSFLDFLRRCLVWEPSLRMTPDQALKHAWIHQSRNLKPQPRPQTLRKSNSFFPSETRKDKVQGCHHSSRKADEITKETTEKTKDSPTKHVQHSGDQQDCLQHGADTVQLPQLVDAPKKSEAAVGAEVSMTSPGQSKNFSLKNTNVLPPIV
For `CO[C@H]1C[C@@H]2CC[C@@H](C)[C@@](O)(O2)C(=O)C(=O)N2CCCC[C@H]2C(=O)O[C@H]([C@H](C)C[C@@H]2CC[C@@H](O)[C@H](OC)C2)CC(=O)[C@H](C)/C=C(\C)[C@@H](O)[C@@H](OC)C(=O)[C@H](C)C[C@H](C)/C=C/C=C/C=C/1C`, the remaining activity was 99.8%.
`Oc1ccc(-c2nc(-c3ccncc3)c(-c3ccc(F)cc3)[nH]2)cc1` gave a remaining activity of 101%.
`COc1ccc(CNC(=O)Nc2ncc([N+](=O)[O-])s2)cc1` has a remaining activity of 97.7%.
For `Cc1ccc(Nc2nccc(N(C)c3ccc4c(C)n(C)nc4c3)n2)cc1S(N)(=O)=O`, the remaining activity was 106%.
`Nc1ccc2ncnc(NCCc3ccc(Oc4ccccc4)cc3)c2c1` has a remaining activity of 93.7%.
`N#CC(C#N)=C(N)/C(C#N)=C/c1ccc(O)cc1` gave a remaining activity of 107%.
`Cc1ccc(NC(=O)c2ccc(CN3CCN(C)CC3)cc2)cc1Nc1nc(-c2cccnc2)cs1` has a remaining activity of 100%.
`Nc1ncnc2n[nH]c(Nc3ccc(F)cc3)c12` has a remaining activity of 104%.
`OCC(O)CCON=C1C(c2c(O)[nH]c3ccccc23)=Nc2ccccc21` (stereo not shown) gave a remaining activity of 100%.
`Cn1sc(=O)n(Cc2ccccc2)c1=O` has a remaining activity of 99.3%.
With `O=C1NC(=O)C(c2cn(CCCn3ccnc3)c3ccccc23)=C1Nc1ccccc1` the remaining activity was 89%.
`CNC(=O)c1cc(Oc2ccc(NC(=O)Nc3ccc(Cl)c(C(F)(F)F)c3)cc2)ccn1` gave a remaining activity of 105%.
With `Nc1[nH]nc2nc3ccccc3nc12` the remaining activity was 89.2%.
The remaining activity of `CC(C)[C@H](CO)Nc1nc(Nc2cc(N)cc(Cl)c2)c2ncn(C(C)C)c2n1` is reported as 91.6%.
The remaining activity of `O=S(=O)(c1cccc2cnccc12)N1CCCNCC1` is reported as 97.9%.
For `O=c1c2ccccc2[nH]c(=S)n1CCN1CCC(=C(c2ccc(F)cc2)c2ccc(F)cc2)CC1`, the remaining activity was 97.5%.

Some of these lines once more (study 4):
With `O=C1NC(=O)C(c2cn(CCCn3ccnc3)c3ccccc23)=C1Nc1ccccc1` the remaining activity was 89%.
`CNC(=O)c1cc(Oc2ccc(NC(=O)Nc3ccc(Cl)c(C(F)(F)F)c3)cc2)ccn1` gave a remaining activity of 105%.
With `Nc1[nH]nc2nc3ccccc3nc12` the remaining activity was 89.2%.
The remaining activity of `CC(C)[C@H](CO)Nc1nc(Nc2cc(N)cc(Cl)c2)c2ncn(C(C)C)c2n1` is reported as 91.6%.
